Measured values pooled from the literature.
Numbered parts are unrelated; each lists some results of a single study. Substitutions count along the parent as printed.

Block 1
Target: RNA binding protein fox-1 homolog 2, RRM domain, GST-SBP tag (RBFOX2, Homo sapiens, UniProt O43251-10, residues 100-194)
Method: RNA Bind-n-Seq
Form: RNA
Matrix: in vitro
Concentration: 365 nM
Setting: natural RNA segment, single round, ends assumed
Baseline: no-protein control
Reading: higher = stronger binding
Constant ends, left off below: GGGAGUUCUACAGUCCGACGAUC … UGGAAUUCUCGGGUGCCAA
`UGUUAGCUGCAUAAGCUCAAUAAAAAGUUGGUCUGGGCAUUGCAUCCCCUCUGACAGACCGAUAGCUGCAUCAGGCUGUUGGGUGGAAUGGGAGGCAAGGGAAUAGGAAA`: “RBNS enrichment (R)” 0.422.
`GAAUUGUACAUAGCUGGAUGUAAAUAGGAGCGUGUCUGUCAGGUUUUAUUCUUGUUUUGCCUUUUGGGUCUUAUUUCCAGGUCAGGAGAUGGCUAAUCCACACUAGCAAG`: “RBNS enrichment (R)” 0.652.
For `AAAAAUCUAUCUUUGAUACAUUUUAUUUUUAUGCCCUACUUAAUAUUUGCAUCAGUAUAAUAUAUAUCAGUGUGUCAUACAGAAAGAUAUGCUUCUGUAAUAUGAAAUAG`, “RBNS enrichment (R)” read 0.645.
For `AAGAGGUGCCCAGGCCUGAGGUACUCACAUAAAUGCUUUGUUUUGCUGGUGAUUUAACCAGUGCUUGGAAAAAUCUUGCUUGGCUAUUUCUGCAUCAUUUCUUAAGGCUG`, “RBNS enrichment (R)” read 3.91.
Under “RBNS enrichment (R)”, `AAAGACACUUAAGAAGAUGAAAUAAUAUUCAAAUUUCAUUUUUUCCUUUUUCCAUUUAUCUGUGGAAACCAACAGAUAUUGCUCUAUAUUUUUUGUAUUAGUAUGGUUUG` is recorded as 0.445.
Under “RBNS enrichment (R)”, `CUCAGGCUAUGUAAGUCUGAAGUACUGUUCUUCUCCACUAAGUAAUACCCAACUAAUUUCCAUUUAAAAGUAUUCCAAAAGCAGCAUUUACCAACAAUUUUUUUAGAUUG` is recorded as 2.12.
`CCCGGGAGGGACCUUCCCUGCCCUGCUGGGGGUGCUCUUUGGACACUGGAUUAUGAGGAAUGGAUAAAUGGAUGAGCUAGGGCUCUGGGGGUCUGCCUGCACACUCUGGG`: “RBNS enrichment (R)” 7.53.
`UCAGAACUUACAGAAUCUUAAACAUCAUGCAGGUAAACUCAUUGUCUGUUUGGAAGACCAGAAUGUGAAGACAAGUAGUAGAAGAAAAUGAAUGCUGCUGCUGAGACUGA`: “RBNS enrichment (R)” 0.805.

Block 2
Target: FOS, bZIP domain (human)
Method: DHFR protein complementation
Matrix: yeast
Setting: single substitutions, most at no-binding floor
Baseline: wild-type JUN-FOS pair
Reading: higher = stronger binding
Starting sequence: JUN, bZIP domain (human); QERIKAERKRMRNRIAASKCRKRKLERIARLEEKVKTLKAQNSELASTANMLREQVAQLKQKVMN; partner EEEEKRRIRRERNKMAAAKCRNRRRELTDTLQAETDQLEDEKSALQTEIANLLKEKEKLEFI
For `A57Q`, the binding fitness was -0.0962 natural log.
For `A46E`, the binding fitness was 0.000725 natural log.
`S43D` gave a binding fitness of -0.0814 natural log.
For `S47D`, the binding fitness was 0.0329 natural log.
For `A46N`, the binding fitness was -0.102 natural log.
`L45I` has a binding fitness of -1.07 natural log.
With `K34Q` the binding fitness was -0.0752 natural log.
`K34P` has a binding fitness of -1.34 natural log.
`E54M` gave a binding fitness of -0.183 natural log.
With `A29N` the binding fitness was -0.101 natural log.
For `M51S`, the binding fitness was -0.0497 natural log.
`L59V` has a binding fitness of -1.07 natural log.
For `A40R`, the binding fitness was -0.0237 natural log.
For `L45A`, the binding fitness was -1.08 natural log.
With `N42K` the binding fitness was -0.185 natural log.
With `K36L` the binding fitness was -0.0737 natural log.

Block 3
Target: Interferon regulatory factor 5, full length, phosphomimetic (IRF5, Homo sapiens, UniProt Q13568-2, residues 1-514, K96S/S451D/S453D/S456D/S462D)
Method: protein-binding microarray
Form: double-stranded DNA, one strand shown
Matrix: in vitro
Concentration: 250 nM
Setting: 60-bp whole probe
Together with: salmon DNA 0.4 mg/ml
Baseline: random background probes
Reading: higher = stronger binding
Constant ends, left off below: GCCTAGCAC … GTCTTGATTCGCTTGACGCTGCTG
`TCAGCTTTACTGATGGCACTGTGCTAG` has a log fluorescence of -0.191 z-score.
For `TTAGGCATCGGACTGGGTTAGTGCTAG`, the log fluorescence was -0.467 z-score.
For `TCAGTTTTCTTTTCCATACTGTGCTAG`, the log fluorescence was 2.06 z-score.
`TTAGATTTCAGACTGGCTTAGTGCTAG` gave a log fluorescence of 0.303 z-score.
`TCATGTTTGGTTCTGATACTGTGCTAG` has a log fluorescence of 0.589 z-score.
The log fluorescence of `GACCGACTGCTTTTCCTGACGTGCTAG` is reported as -0.294 z-score.
For `TTAGGTATCGACTTTTGGTTAGTGCTA`, the log fluorescence was 4.05 z-score.
`GACGGTTGCGGTTCCGGGACGTGCTAG` has a log fluorescence of 0.48 z-score.
For `GACGGTATGCTTTTCCTGACGTGCTAG`, the log fluorescence was -0.0024 z-score.
The log fluorescence of `GACGGTTTCGGGACTAGGGACGTGCTA` is reported as 4.94 z-score.
The log fluorescence of `GACGGTCTCCTTTTCCTCACGTGCTAG` is reported as 0.203 z-score.
With `TTTACTTTCTTTTTTTCTTTGTGCTAG` the log fluorescence was 5.57 z-score.
`GACGGTCTCCTTCTCCTGCCGTGCTAG` has a log fluorescence of -0.352 z-score.
The log fluorescence of `GACGATCTCAGACAGGAGACGTGCTAG` is reported as -0.327 z-score.
For `GACGGCCTGGGGTTTCGGGACGTGCTA`, the log fluorescence was 0.819 z-score.
`AAAACACTAATTTTCATTTTGTGCTAG` has a log fluorescence of 2.25 z-score.
`TCAAATTTCTTCCTCCCACTGTGCTAG` has a log fluorescence of 0.652 z-score.
The log fluorescence of `CACGGACTGGGTTTCGGGACGTGCTAG` is reported as 2.34 z-score.
`GACGGTATCGGCACTGGGGACGTGCTA` has a log fluorescence of 1.29 z-score.

Block 4
Target: Histone acetyltransferase KAT6A, winged helix 2, GST fusion (KAT6A, Homo sapiens, UniProt Q92794, residues 85-181)
Method: protein binding microarray
Form: double-stranded DNA, one strand shown
Matrix: in vitro
Concentration: not given
Setting: 8-mer, flanks averaged, mean of 2 arrays, mostly near background
Baseline: not given
Reading: higher = stronger binding
Construct (chain): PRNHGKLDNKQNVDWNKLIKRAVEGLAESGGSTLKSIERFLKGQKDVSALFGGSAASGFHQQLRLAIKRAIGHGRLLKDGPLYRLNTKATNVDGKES
For `GAGTTTGA`, the E-score was 0.00992.
`AAGCGATC` gave an E-score of -0.012.
The E-score of `AAATCTAG` is reported as -0.0692.
`ACCGTGTC` gave an E-score of 0.127.
The E-score of `TAATCCAA` is reported as -0.0161.
The E-score of `TACGACGA` is reported as -0.1.
With `CTATACAA` the E-score was -0.013.
With `GTATCGCA` the E-score was 0.0426.
`CGTTTCTA` gave an E-score of -0.0456.
For `CTTGTCGC`, the E-score was 0.132.
The E-score of `CTTACTTA` is reported as -0.232.
The E-score of `CGATGTCA` is reported as -0.199.
For `AGTTTTAT`, the E-score was 0.119.
For `CCGGGCTA`, the E-score was 0.0194.
The E-score of `GCAACGAA` is reported as 0.153.
For `ATGGTCGC`, the E-score was 0.0783.
For `GGAGCGGA`, the E-score was 0.0267.
For `CTTTAACA`, the E-score was -0.0253.
The E-score of `AAAGACCA` is reported as -0.14.
`TTGGTAAA` gave an E-score of 0.116.
With `CGTTTTGA` the E-score was 0.0279.
The E-score of `CTGCCGGC` is reported as 0.312.
For `CAAGTAGC`, the E-score was -0.089.
For `TAACGTTA`, the E-score was -0.161.
`ACGAGGTG` has an E-score of -0.0176.

Excerpt of the above (block 3):
`TCAGCTTTACTGATGGCACTGTGCTAG` has a log fluorescence of -0.191 z-score.
For `TTAGGCATCGGACTGGGTTAGTGCTAG`, the log fluorescence was -0.467 z-score.
For `TCAGTTTTCTTTTCCATACTGTGCTAG`, the log fluorescence was 2.06 z-score.
`TTAGATTTCAGACTGGCTTAGTGCTAG` gave a log fluorescence of 0.303 z-score.
`TCATGTTTGGTTCTGATACTGTGCTAG` has a log fluorescence of 0.589 z-score.
The log fluorescence of `GACCGACTGCTTTTCCTGACGTGCTAG` is reported as -0.294 z-score.
For `TTAGGTATCGACTTTTGGTTAGTGCTA`, the log fluorescence was 4.05 z-score.
`GACGGTTGCGGTTCCGGGACGTGCTAG` has a log fluorescence of 0.48 z-score.
For `GACGGTATGCTTTTCCTGACGTGCTAG`, the log fluorescence was -0.0024 z-score.
The log fluorescence of `GACGGTTTCGGGACTAGGGACGTGCTA` is reported as 4.94 z-score.
The log fluorescence of `GACGGTCTCCTTTTCCTCACGTGCTAG` is reported as 0.203 z-score.
